# Published values of several laboratories.
# Protocols differ between the studies behind these lines. ± gives the spread as reported.
Structure (SMILES),test,system,setting,tissue uptake
N=C(N)NCCC[C@@H]1NC(=O)[C@H](CC(=O)NC23CNCCNCC(N)(CNCCNC2)CNCCNC3)NC(=O)[C@@H](Cc2ccccc2)NC(=O)[C@H](CC(=O)O)NC(=O)CNC1=O [copper-64 labelled],,"Nu/Nu mouse, male, tumour-bearing, bone","intravenous, 10 µCi, 4 h",0.23 ± 0.12 %ID/g
N=C(N)NCCC[C@@H]1NC(=O)[C@H](CCCCNC(=O)CCOCCOCCOCCOCCNC(=O)CC[C@H](NC(=O)[C@H](CCCCNC(=O)c2ccc(NN)nc2)NC(=O)c2ccc(NN)nc2)C(=O)NCCOCCOCCOCCOCCC(=O)NCCCC[C@@H]2NC(=O)[C@@H](Cc3ccccc3)NC(=O)[C@H](CC(=O)O)NC(=O)CNC(=O)[C@H](CCCNC(=N)N)NC2=O)NC(=O)[C@@H](Cc2ccccc2)NC(=O)[C@H](CC(=O)O)NC(=O)CNC1=O [technetium-99m labelled],,"athymic nude mouse, female, U-87 MG xenograft, intestine","intravenous, 0.1 MBq, 1 h",11.4 ± 0.97 %ID/g
N=C(N)NCCC[C@@H]1NC(=O)[C@H](CCCCNC(=O)CNC(=O)CNC(=O)CNC(=O)CC[C@H](NC(=O)CNC(=O)CNC(=O)CNC(=O)c2ccc(NN=Cc3ccccc3S(=O)(=O)O)nc2)C(=O)NCC(=O)NCC(=O)NCC(=O)NCCCC[C@@H]2NC(=O)[C@@H](Cc3ccccc3)NC(=O)[C@H](CC(=O)O)NC(=O)CNC(=O)[C@H](CCCNC(=N)N)NC2=O)NC(=O)[C@@H](Cc2ccccc2)NC(=O)[C@H](CC(=O)O)NC(=O)CNC1=O [technetium-99m labelled],,"athymic nu/nu mouse, female, MDA-MB-435 xenograft, kidney","intravenous, 30 min",17.5 ± 2 %ID/g
N=C(N)NCCC[C@@H]1NC(=O)[C@H](CCCCNC(=O)CCOCCOCCOCCOCCNC(=O)CC[C@H](NC(=O)CCOCCOCCOCCOCCNC(=O)CC[C@H](NC(=O)CN2CCN(CC(=O)O)CCN(CC(=O)O)CCN(CC(=O)O)CC2)C(=O)NCCOCCOCCOCCOCCC(=O)N[C@@H](CCC(=O)NCCOCCOCCOCCOCCC(=O)NCCCC[C@@H]2NC(=O)[C@@H](Cc3ccccc3)NC(=O)[C@H](CC(=O)O)NC(=O)CNC(=O)[C@H](CCCNC(=N)N)NC2=O)C(=O)NCCOCCOCCOCCOCCC(=O)NCCCC[C@@H]2NC(=O)[C@@H](Cc3ccccc3)NC(=O)[C@H](CC(=O)O)NC(=O)CNC(=O)[C@H](CCCNC(=N)N)NC2=O)C(=O)NCCOCCOCCOCCOCCC(=O)NCCCC[C@@H]2NC(=O)[C@@H](Cc3ccccc3)NC(=O)[C@H](CC(=O)O)NC(=O)CNC(=O)[C@H](CCCNC(=N)N)NC2=O)NC(=O)[C@@H](Cc2ccccc2)NC(=O)[C@H](CC(=O)O)NC(=O)CNC1=O [indium-111 labelled],,"athymic nude mouse U-87 MG xenograft, spleen","intravenous, 1 h, together with: RGD2 co-injected 14 mg/kg",0.5 %ID/g
CSCC[C@H](NC(=O)[C@H](CC(C)C)NC(=O)[C@H](Cc1c[nH]cn1)NC(=O)CNC(=O)[C@@H](NC(=O)[C@H](C)NC(=O)[C@H](Cc1c[nH]c2ccccc12)NC(=O)[C@H](CCC(N)=O)NC(=O)CCCCCNC(=O)CNC(=O)CNC(=O)CNC(=O)CSC(C)=O)C(C)C)C(N)=O [technetium-99m labelled],,"nude mouse, PC-3 xenograft, spleen",30 min,1.51 ± 0.55 %ID/g
CCCC[C@H](NC(=O)CNC(=O)CNC(=O)c1ccc(NN)nc1)C(=O)N[C@H]1CC(=O)NCCCC[C@@H](C(N)=O)NC(=O)[C@H](Cc2c[nH]c3ccccc23)NC(=O)[C@H](CCCNC(=N)N)NC(=O)[C@@H](Cc2ccccc2)NC(=O)[C@H](Cc2c[nH]cn2)NC1=O [technetium-99m labelled],,"C57 mouse, B16/F1 melanoma-bearing, bone","intravenous, 4 h",0.09 ± 0.01 %ID/g
CCCC[C@H](NC(=O)CNC(=O)[C@H](CO)NC(=O)CNC(=O)c1ccc(NN)nc1)C(=O)N[C@H]1CC(=O)NCCCC[C@@H](C(N)=O)NC(=O)[C@H](Cc2c[nH]c3ccccc23)NC(=O)[C@H](CCCNC(=N)N)NC(=O)[C@@H](Cc2ccccc2)NC(=O)[C@H](Cc2c[nH]cn2)NC1=O [technetium-99m labelled],,"C57 mouse, B16/F1 melanoma, urine","intravenous, 0.037 MBq, 2 h",95.25 ± 0.52 %ID
N=C(N)NCCC[C@@H]1NC(=O)[C@H](CCCCNC(=O)CCC(NC(=S)Nc2ccc(CC3CN(CC(=O)O)CCN(CC(=O)O)CCN(CC(=O)O)CCN3CC(=O)O)cc2)C(=O)NCCCC[C@@H]2NC(=O)[C@@H](Cc3ccc(O)cc3)NC(=O)[C@H](CC(=O)O)NC(=O)CNC(=O)[C@H](CCCNC(=N)N)NC2=O)NC(=O)[C@@H](Cc2ccc(O)cc2)NC(=O)[C@H](CC(=O)O)NC(=O)CNC1=O (stereo partly shown) [scandium-44 labelled],PET imaging,"female athymic nude mouse, U-87 MG xenograft tumour","intravenous, 5.5 to 7.4 MBq, 4 h",3 ± 1.25 %ID/g
CSCC[C@H](NC(=O)[C@H](CC(C)C)NC(=O)[C@H](Cc1c[nH]cn1)NC(=O)CNC(=O)[C@@H](NC(=O)[C@H](C)NC(=O)[C@H](Cc1c[nH]c2ccccc12)NC(=O)[C@H](CCC(N)=O)NC(=O)[C@H](CC(N)=O)NC(=O)CNC(=O)[C@H](Cc1ccc(O)cc1)NC(=O)[C@H](CCCNC(=N)N)NC(=O)[C@H](CCC(N)=O)NC(=O)[C@@H]1CCCN1C(=O)CN1CCN(CC(=O)O)CCN(CC(=O)O)CCN(CC(=O)O)CC1)C(C)C)C(N)=O [indium-111 labelled],,"Swiss nu/nu mouse, male, PC-3 tumour xenograft, pancreas","intravenous, 10 pmol, 24 h",5.8 ± 1.4 %ID/g
CCCC[C@H](NC(=O)CCCCCCCNC(=O)c1ccc(NN)nc1)C(=O)N[C@H]1CC(=O)NCCCC[C@@H](C(N)=O)NC(=O)[C@H](Cc2c[nH]c3ccccc23)NC(=O)[C@H](CCCNC(=N)N)NC(=O)[C@@H](Cc2ccccc2)NC(=O)[C@H](Cc2c[nH]cn2)NC1=O [technetium-99m labelled],,"C57 mouse, B16/F1 melanoma, spleen","2 h, together with: L-lysine 12 mg co-injected",0.22 ± 0.09 %ID/g
N=C(N)NCCC[C@@H]1NC(=O)[C@H](CCCCNC(=O)CNC(=O)CNC(=O)CNC(=O)c2ccc(NN=Cc3ccccc3S(=O)(=O)O)nc2)NC(=O)[C@@H](Cc2ccccc2)NC(=O)[C@H](CC(=O)O)NC(=O)CNC1=O [technetium-99m labelled],,"athymic nu/nu mouse, female, U-87 MG glioma xenograft, muscle","intravenous, 120 min",0.64 ± 0.11 %ID/g
CCCC[C@H](NC(=O)CNC(=O)CNC(=O)CNC(=O)c1ccc(NN)nc1)C(=O)N[C@H]1CC(=O)NCCCC[C@@H](C(N)=O)NC(=O)[C@H](Cc2c[nH]c3ccccc23)NC(=O)[C@H](CCCNC(=N)N)NC(=O)[C@@H](Cc2ccccc2)NC(=O)[C@H](Cc2c[nH]cn2)NC1=O [technetium-99m labelled],,"C57 mouse, B16/F1 melanoma, blood","intravenous, 0.037 MBq, 2 h",0.07 ± 0.01 %ID/g
CCCC[C@H](NC(=O)[C@H](Cc1cccs1)NC(=O)[C@H](Cc1c[nH]cn1)NC(=O)CCNC(=O)[C@@H](NC(=O)[C@H](C)NC(=O)[C@H](Cc1c[nH]c2ccccc12)NC(=O)[C@H](CCC(N)=O)NC(=O)[C@H](Cc1cccs1)NC(=O)CN1CCC(NC(=O)CN(CCN(CCN(CC(=O)O)CC(=O)O)CC(=O)O)CC(=O)O)CC1)C(C)C)C(N)=O [indium-111 labelled],,"Swiss nu/nu mouse, male, PC-3 tumour xenograft, pancreas","intravenous, 10 pmol, 24 h",2.4 ± 0.7 %ID/g

# A few entries again:
Structure (SMILES),test,system,setting,tissue uptake
CCCC[C@H](NC(=O)[C@H](Cc1cccs1)NC(=O)[C@H](Cc1c[nH]cn1)NC(=O)CCNC(=O)[C@@H](NC(=O)[C@H](C)NC(=O)[C@H](Cc1c[nH]c2ccccc12)NC(=O)[C@H](CCC(N)=O)NC(=O)[C@H](Cc1cccs1)NC(=O)CN1CCC(NC(=O)CN(CCN(CCN(CC(=O)O)CC(=O)O)CC(=O)O)CC(=O)O)CC1)C(C)C)C(N)=O [indium-111 labelled],,"Swiss nu/nu mouse, male, PC-3 tumour xenograft, pancreas","intravenous, 10 pmol, 24 h",2.4 ± 0.7 %ID/g
CSCC[C@H](NC(=O)[C@H](CC(C)C)NC(=O)[C@H](Cc1c[nH]cn1)NC(=O)CNC(=O)[C@@H](NC(=O)[C@H](C)NC(=O)[C@H](Cc1c[nH]c2ccccc12)NC(=O)[C@H](CCC(N)=O)NC(=O)[C@H](CC(N)=O)NC(=O)CNC(=O)[C@H](Cc1ccc(O)cc1)NC(=O)[C@H](CCCNC(=N)N)NC(=O)[C@H](CCC(N)=O)NC(=O)[C@@H]1CCCN1C(=O)CN1CCN(CC(=O)O)CCN(CC(=O)O)CCN(CC(=O)O)CC1)C(C)C)C(N)=O [indium-111 labelled],,"Swiss nu/nu mouse, male, PC-3 tumour xenograft, pancreas","intravenous, 10 pmol, 24 h",5.8 ± 1.4 %ID/g
